Experimental data from different studies.
Compare with care: the assays were run in different laboratories. Several values in a cell are separate wells, animals, samples, runs or records. ± marks the error that the study gave.
Chain of UniProt Q9Y5L0 (whole entry, looked up): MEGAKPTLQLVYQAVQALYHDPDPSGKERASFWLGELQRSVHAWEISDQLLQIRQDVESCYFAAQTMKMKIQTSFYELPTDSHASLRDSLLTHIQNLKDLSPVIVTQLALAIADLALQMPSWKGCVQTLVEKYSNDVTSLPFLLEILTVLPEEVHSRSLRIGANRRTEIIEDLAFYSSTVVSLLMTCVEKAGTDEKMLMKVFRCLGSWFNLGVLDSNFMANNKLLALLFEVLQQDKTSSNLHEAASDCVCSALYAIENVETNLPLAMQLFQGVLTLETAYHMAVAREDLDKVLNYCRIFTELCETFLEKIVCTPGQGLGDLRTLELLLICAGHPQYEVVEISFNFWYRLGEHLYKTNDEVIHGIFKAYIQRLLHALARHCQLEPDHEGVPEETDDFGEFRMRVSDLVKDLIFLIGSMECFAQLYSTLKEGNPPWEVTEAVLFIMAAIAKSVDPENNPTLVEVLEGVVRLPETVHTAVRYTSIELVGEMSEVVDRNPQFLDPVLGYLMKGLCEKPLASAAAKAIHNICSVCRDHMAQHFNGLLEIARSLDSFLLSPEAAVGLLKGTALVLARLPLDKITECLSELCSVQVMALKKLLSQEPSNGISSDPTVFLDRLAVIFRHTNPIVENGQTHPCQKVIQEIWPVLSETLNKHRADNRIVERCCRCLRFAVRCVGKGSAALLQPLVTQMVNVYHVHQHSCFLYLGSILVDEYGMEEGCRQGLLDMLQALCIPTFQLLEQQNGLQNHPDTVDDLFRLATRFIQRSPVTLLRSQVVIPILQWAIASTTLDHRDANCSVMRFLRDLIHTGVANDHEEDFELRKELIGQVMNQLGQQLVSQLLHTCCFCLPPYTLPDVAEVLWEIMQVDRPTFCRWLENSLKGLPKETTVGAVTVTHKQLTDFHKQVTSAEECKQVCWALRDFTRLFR

`COc1ncnn2ccc(-c3cnc4nc(C)n(Cc5nnc([C@@H](C)F)o5)c4c3)c12`: “patients with dysgeusia” 0% (human; oral, dose not given, grade 5).
`N#C/N=C1\SCCN1Cc1ccc(Cl)nc1` gave a recovery of 1.8% (soil; 56 days, nominal 1.1).
With `CCC[C@@](N)(CO)CCc1ccc(OCCCCCC(C)C)cc1` the clearance was 25.9 mL/min/kg (hound dogs, male; intravenous, 0.25 mg/kg, geometric mean).
`CC(C)[C@@H]1NC(=O)CNC(=O)[C@H](CC(N)=O)NC(=O)[C@H](CCCNC(=N)N)NC(=O)[C@H](Cc2ccc(O)cc2)NC(=O)[C@H](C(C)C)NC(=O)[C@@H](NC(=O)[C@@H](NC(=O)[C@H](CC(N)=O)NC(=O)[C@H](Cc2c[nH]c3ccccc23)NC(=O)[C@H](C)NC(=O)[C@H](Cc2ccccc2)NC(=O)CN)C(C)C)CSSC[C@@H](C(=O)N[C@@H](Cc2cnc[nH]2)C(=O)N[C@@H](CCCNC(=N)N)C(=O)N[C@@H](CCCNC(=N)N)C(=O)N[C@@H](C)C(=O)N[C@@H](CC(N)=O)C(N)=O)NC(=O)[C@H](C(C)C)NC(=O)[C@H](CCCNC(=N)N)NC1=O`: “mean corpuscular volume” 40.5 ± 1.17 fL (ICR mice, blood; intraperitoneal, 5 mg/kg, day 5).
`CCCC(CCC)NC(=O)c1ccc2c(c1)OCO2` has a micronucleated PCEs of 0.1% (Swiss albino CD-1 mice, male, bone marrow; intraperitoneal, 700 mg/kg, 48 h).
For `CC(C)CC(=O)OC[C@H]1O[C@@](C#N)(c2ccc3c(N)ncnn23)[C@H](O)[C@@H]1O`, the fraction bound was 0.683 (monkey plasma; 9 µM).
Under “serious adverse event incidence”, `COc1ccc(-c2c(-c3ccc(C#N)c(F)c3)nc(N3CCC(N)CC3)n(C)c2=O)cc1F` is recorded as 0% (refers to: Anemia; human patients; oral, dose not given, dose escalation, NG).
For `C[C@@H](O)[C@@H]1NC(=O)CNC(=O)[C@H](Cc2c[nH]cn2)NC(=O)[C@H](Cc2c[nH]c3ccccc23)NC(=O)[C@H](CC(N)=O)NC(=O)CNC(=O)C[C@@H](C(=O)N[C@@H](Cc2c[nH]c3ccccc23)C(=O)N[C@@H](Cc2ccccc2)C(=O)N[C@@H](Cc2ccccc2)C(=O)N[C@@H](CC(N)=O)C(=O)N[C@@H](Cc2ccc(O)cc2)C(=O)N[C@@H](Cc2ccc(O)cc2)C(=O)N[C@@H](Cc2c[nH]c3ccccc23)C(=O)O)NC(=O)[C@@H]2CCCN2C(=O)[C@H](CO)NC1=O`, the recovery was 98.8% (rapid equilibrium dialysis; mouse plasma; 20 µM, time not given).
`COc1cc2c(Oc3ccc4[nH]c(C)cc4c3F)ccnc2cc1OCC1(N)CC1` — result for “grade 1 or 2 Leukopenia”: 0% (paediatric recurrent refractory sarcoma; 8 mg).
For `Cc1cc(C)c(CNC(=O)c2cc(Cl)c3c(c2C)O[C@@](C)([C@H]2CC[C@H](N(C)C)CC2)O3)c(=O)[nH]1`, the Anaemia incidence was 0% (human, relapsed/refractory NHL; concentration not given, all TEAEs, grade 5).
With `CCOc1ccccc1CNCc1cccn1-c1nnc(N2CCN(c3ccccc3)CC2)s1` the maximum response was -23% (Vero-E6; CellTiter-Glo ATP; 72 h, first round 5-point; baseline: DMSO 0%, hyamine -100%, more negative, more toxic).
For `O=C(Oc1ccc(Br)cc1)[c-]1cccc1.[Fe+2].c1cc[cH-]c1`, the oxidation potential was 580 mV (cyclic voltammetry; methanol/DMEM 1:1 with TBAPF6; Pt disk electrode, Ag/AgCl reference, together with: scan rate 100 mV/s).
`Cn1c(-c2ccc(C(N)=O)cc2F)nnc1C(C)(C)Oc1c(F)cc(Cl)cc1F`: “gastrointestinal disorder TEAE” 0% (human; oral, 60 mg, single ascending dose).
For `C=CCNc1c(O)cc2c(O)c1C[C@@H](C)C[C@H](OC)[C@H](O)[C@@H](C)/C=C(\C)[C@H](OC(N)=O)[C@@H](OC)/C=C\C=C(/C)C(=O)N2`, “patients with TEAE” read 30% (refers to: Arthralgia; unresectable or metastatic GIST/STS; intravenous, dose not given, all doses).
`C[C@]1(CO)Cc2ncn(-c3ccc(C#N)c(Cl)c3)c2C(=O)O1` — result for “drug-related urine abnormality”: 0% (human; 10 mg, European food-effect part, fasted).
`CCN1[C@@H](C(=O)NC23CCC(C(=O)O)(CC2)CC3)[C@H](c2cccc(Cl)c2F)[C@]2(C(=O)Nc3cc(Cl)ccc32)C12CCCCC2`: “any-grade lymphocytopenia incidence” 42.9% (patients with advanced solid tumours; oral, dose not given, all doses).
`CCCCCCCCCCCCCCCC(=O)N[C@@H](CCC(=O)NCCCC[C@H](NC(=O)[C@H](CC(=O)O)NC(=O)[C@H](CO)NC(=O)[C@@H](NC(=O)[C@H](Cc1ccccc1)NC(=O)[C@@H](NC(=O)CNC(=O)[C@H](CCC(N)=O)NC(=O)[C@H](CO)NC(=O)[C@@H](N)Cc1c[nH]cn1)[C@@H](C)O)[C@@H](C)O)C(=O)N[C@@H](CO)C(=O)N[C@@H](CCC(=O)O)C(=O)N[C@@H](Cc1ccc(O)cc1)C(=O)N[C@@H](CC(C)C)C(=O)N[C@@H](CC(=O)O)C(=O)N[C@@H](CO)C(=O)N[C@@H](CCC(=O)O)C(=O)N[C@@H](CCCNC(=N)N)C(=O)N[C@@H](C)C(=O)N[C@@H](CCCNC(=N)N)C(=O)N[C@@H](CC(=O)O)C(=O)N[C@@H](Cc1ccccc1)C(=O)N[C@H](C(=O)N[C@@H](C)C(=O)N[C@@H](Cc1c[nH]c2ccccc12)C(=O)N[C@@H](CC(C)C)C(=O)N[C@@H](CCC(=O)O)C(=O)N[C@@H](C)C(=O)NCC(=O)NCC(=O)O)C(C)C)C(=O)O`: “treatment-related adverse events” 25% (refers to: Headache; humans CrCl 20 to 30 mL/min; subcutaneous, 100 µg single dose).
Under “enzyme contribution to clearance”, `CC1(C)[C@H](C(=O)OCc2cccc(Oc3ccccc3)c2)[C@@H]1C=C(Cl)Cl` is recorded as 3.11% (refers to: CYP2C19; human, age 1 year, recombinant human CYP2C19; 0.1 µM).
With `CC(=O)c1c(C)c2cnc(Nc3ccc(C4CCN(CCS(C)(=O)=O)CC4)cn3)nc2n(C2CCCC2)c1=O` the t1/2 was 5.8 h (human, plasma; oral, 100 mg, day 1 single dose).
`COc1ccc([C@@H]2CC(=O)c3c(O)cc(O)cc3O2)cc1O` — result for “faecal excreted amount”: 8630 ± 5990 ng (male Sprague-Dawley rat, obese; oral, 100 mg/kg of neohesperidin, 24 to 36 h).
`COc1ncccc1-c1cnn2ccc(N3CCN(C(=O)OC(C)C)CC3)nc12`: “free drug concentration” 72 nM (mouse, SNL model, plasma; oral, 10 mg/kg, 120 min).
For `N[C@@H]1c2ccccc2OC12CCN(c1cnc3c(N4CCCc5ncccc54)n[nH]c3n1)CC2`, “left ventricular ejection fraction” read 45% (human; 60 mg once daily, cycle 2).
`O=C(Nc1cccc(Cl)c1)C1CCCN(Cc2cccc(-c3ccc(F)cc3F)c2)C1` (stereo not drawn) has a cytotoxicity efficacy of 0% (Vero-E6; CellTiter-Glo ATP; concentration not given, 72 h, retest 8-point duplicates; baseline: DMSO 0%, hyamine -100%, more negative, more toxic).
Under “adverse event incidence”, `CN1CC[C@@H](c2c(O)cc(O)c3c(=O)cc(-c4ccc(C(F)(F)F)cc4Cl)oc23)[C@@H]1CO` is recorded as 7.5% (refers to: Neutropenia; relapsed or refractory haematological malignancies; oral, dose not given, grade 3 to 4).
Under “incidence of urine ketone body positive”, `C[C@@H](NC(=O)N1C(=O)[C@H](Cc2ccnc(N)c2)[C@H]1C(=O)O)C1CCCCC1` is recorded as 0% (healthy adult Chinese volunteers; continuous intravenous infusion, 2.25 mg/kg/h, 5-day infusion, CTCAE 5.0 grading).
Under “serum enzyme activity”, `O=S(=O)(Nc1ccccc1)c1ccc(NC(=S)Nc2ccccc2)cc1` is recorded as 3280 U/L (refers to: CK; female mouse, blood; oral, 20 mg/kg daily, 14 days).
`O=[N+]([O-])c1ccc2c(c1)S(=O)(=O)C=C2` — result for “mean corpuscular haemoglobin concentration”: 288 g/L (male C57BL/6 mice, blood; intraperitoneal, 10 mg/kg, day 8, group average).
Under “mean corpuscular hemoglobin”, `COc1cccc(Oc2ccccc2NC(=O)CNC(=O)c2cccc3ccccc23)c1` is recorded as 14.8 pg and 15 pg and 14.9 pg (esterase-deficient SCID mice, male, blood; oral, 15 mg/kg/day, 14 days, toxicity study).
`C[C@@H]1OC(=O)NN=C1c1ccc(-c2ccc(F)cc2)c(C(F)(F)F)c1`: “patients with adverse event” 20% (phase I trial, refers to: Cough all grades; human patients; dose not given, all dose groups).
The IC50 of `C[C@H]1CN(c2n[nH]c3nc(N[C@H]4CC[C@H](NS(=O)(=O)CCC(F)(F)F)CC4)ncc23)CCO1` is reported as no less than 20 µM (Transportin-3 (Homo sapiens, UniProt Q9Y5L0); biochemical).
`c1csc(CNc2cc[nH]n2)c1`: “micronucleated PCE per 1000 PCE” 0.7 (micronucleus; CD-1 mouse Hsd:ICR(CD-1), female, bone marrow; oral, 500 mg/kg/day, 3 days).
For `O=C(Nc1ccccc1)C1CCN(C(=O)Oc2cccnc2)CC1`, “adverse event Pruritus” read 0% (healthy women; oral, 100 mg, 9 days).
For `O=C1Nc2cc3[nH]nc(-c4ccncc4)c3cc2CN1Cc1ccccc1`, “patients with increased GGT” read 0% (CTCAE v4.03; advanced solid tumour patients; intravenous, 1.8 mg/kg, schedules 1/2).

Some of these lines once more:
With `CC(=O)c1c(C)c2cnc(Nc3ccc(C4CCN(CCS(C)(=O)=O)CC4)cn3)nc2n(C2CCCC2)c1=O` the t1/2 was 5.8 h (human, plasma; oral, 100 mg, day 1 single dose).
`COc1ccc([C@@H]2CC(=O)c3c(O)cc(O)cc3O2)cc1O` — result for “faecal excreted amount”: 8630 ± 5990 ng (male Sprague-Dawley rat, obese; oral, 100 mg/kg of neohesperidin, 24 to 36 h).
`COc1ncccc1-c1cnn2ccc(N3CCN(C(=O)OC(C)C)CC3)nc12`: “free drug concentration” 72 nM (mouse, SNL model, plasma; oral, 10 mg/kg, 120 min).
